# Literature values as cited in several papers.
# Each line is one published result; not all experiments were run side by side.
SMILES,test system,conditions,Cmax
COc1cc2c(c(OC)c1OC)-c1ccc(OC)c(=O)cc1[C@@H](NC(C)=O)CC2,"human, plasma",concentration not given,17 nM
CC(C)(C)OC(=O)N[C@H]1CCCCC/C=C\[C@@H]2C[C@@]2(C(=O)NS(=O)(=O)C2CC2)NC(=O)[C@@H]2C[C@@H](OC(=O)N3Cc4cccc(F)c4C3)CN2C1=O,"human patients, plasma","dose not given, single or steady-state dosing, added: with co-medication",3200 nM
CC(C)(C)NC(=O)[C@@H]1C[C@@H]2CCCC[C@@H]2CN1C[C@@H](O)[C@H](Cc1ccccc1)NC(=O)[C@H](CC(N)=O)NC(=O)c1ccc2ccccc2n1,"human, plasma","concentration not given, range of reported values",119 to 550000 nM
CCC(CC)COC(=O)[C@H](C)N[P@](=O)(OC[C@H]1O[C@@](C#N)(c2ccc3c(N)ncnn23)[C@H](O)[C@@H]1O)Oc1ccccc1,"human, plasma","intravenous infusion, 150 mg over 2 h, literature value",230 nM
C[C@]12CCC(=O)C=C1CC[C@@H]1[C@@H]2[C@@H](O)C[C@@]2(C)[C@H]1CC[C@]2(O)C(=O)CO,"human, plasma","concentration not given, range of reported values",188 to 614 nM
O=C(O)[C@@H](c1ccccc1)[C@@H]1CCCCN1,"human, CES1 wild type, plasma","oral, 10 mg methylphenidate, single dose, median",103 ng/mL
C=C[C@@H]1C[C@]1(NC(=O)[C@@H]1C[C@@H](Oc2cc(-c3csc(NC(=O)C(C)C)n3)nc3c(Br)c(OC)ccc23)CN1C(=O)[C@@H](NC(=O)OC1CCCC1)C(C)(C)C)C(=O)O,"human patients, plasma","dose not given, single or steady-state dosing, added: with co-medication",4400 nM
COc1ccc(C(=O)Nc2ccccc2CCC2CCCCN2C)cc1 (centres unmarked),"human, plasma","concentration not given, median of reported values",1760 nM
C[C@H](Cn1cnc2c(N)ncnc21)OCP(=O)(O)O,"human, plasma total",300 mg,1100 nM
C=C[C@@H]1C[C@]1(NC(=O)[C@@H]1C[C@@H](Oc2ncc(OC)c3ccc(Cl)cc23)CN1C(=O)[C@@H](NC(=O)OC(C)(C)C)C(C)(C)C)C(=O)NS(=O)(=O)C1CC1,"human patients, plasma","dose not given, single or steady-state dosing, added: with co-medication",900 nM
N.N.[Cl][Pt][Cl],human patients,dose not given,≤ 30000 nM
Cc1cc(/C=C/C#N)cc(C)c1Nc1ccnc(Nc2ccc(C#N)cc2)n1,"human, plasma total",150 mg,3000 nM
CN1CCN(C2=Nc3ccccc3Oc3ccc(Cl)cc32)CC1,"human, plasma","concentration not given, median of reported values",143 nM
Cc1nnc(C(=O)NC(C)(C)c2nc(C(=O)NCc3ccc(F)cc3)c(O)c(=O)n2C)o1,"human, plasma total",400 mg,142 nM
CC1(C)CCC(CN2CCN(c3ccc(C(=O)NS(=O)(=O)c4ccc(NCC5CCOCC5)c([N+](=O)[O-])c4)c(Oc4cnc5[nH]ccc5c4)c3)CC2)=C(c2ccc(Cl)cc2)C1,human,"oral, 50 mg single dose",200 ng/mL
COc1ccccc1Oc1c(NS(=O)(=O)c2ccc(C(C)(C)C)cc2)nc(-c2ncccn2)nc1OCCO,human,"125 mg, 10 days",2570 nM
C[C@]12C=CC(=O)C=C1CC[C@@H]1[C@@H]2C(=O)C[C@@]2(C)[C@H]1CC[C@]2(O)C(=O)CO,"human, plasma","concentration not given, range of reported values",42 to 3700 nM

# Repeated from above:
SMILES,test system,conditions,Cmax
CC(C)(C)NC(=O)[C@@H]1C[C@@H]2CCCC[C@@H]2CN1C[C@@H](O)[C@H](Cc1ccccc1)NC(=O)[C@H](CC(N)=O)NC(=O)c1ccc2ccccc2n1,"human, plasma","concentration not given, range of reported values",119 to 550000 nM
CN1CCN(C2=Nc3ccccc3Oc3ccc(Cl)cc32)CC1,"human, plasma","concentration not given, median of reported values",143 nM
